Published values pooled from the literature.
Lines come from different studies, so protocols differ. Values joined by “and” are separate records of one study, mostly repeats; a detail may differ. Numbers after ± are the reported error.
ABCG2: Broad substrate specificity ATP-binding cassette transporter ABCG2 (ABCG2, Homo sapiens, UniProt Q9UNQ0)
Sequence of UniProt Q9UNQ0 (whole entry, looked up): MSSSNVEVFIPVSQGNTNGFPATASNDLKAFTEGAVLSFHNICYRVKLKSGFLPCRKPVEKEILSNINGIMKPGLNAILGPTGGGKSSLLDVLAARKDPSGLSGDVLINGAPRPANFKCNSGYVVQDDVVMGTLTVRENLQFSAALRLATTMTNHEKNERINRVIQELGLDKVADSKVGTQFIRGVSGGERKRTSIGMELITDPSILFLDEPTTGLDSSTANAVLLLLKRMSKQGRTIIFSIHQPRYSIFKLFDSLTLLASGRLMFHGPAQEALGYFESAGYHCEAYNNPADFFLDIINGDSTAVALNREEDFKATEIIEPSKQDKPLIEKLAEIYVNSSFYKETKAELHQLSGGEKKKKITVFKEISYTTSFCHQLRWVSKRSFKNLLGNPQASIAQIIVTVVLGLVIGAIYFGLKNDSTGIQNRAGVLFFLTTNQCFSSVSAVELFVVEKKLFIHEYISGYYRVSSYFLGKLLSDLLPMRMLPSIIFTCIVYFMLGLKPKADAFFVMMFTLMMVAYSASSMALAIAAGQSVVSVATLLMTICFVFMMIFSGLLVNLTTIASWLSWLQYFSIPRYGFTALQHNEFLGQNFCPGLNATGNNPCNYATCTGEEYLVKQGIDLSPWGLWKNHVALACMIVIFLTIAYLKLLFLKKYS
Sequence of UniProt P00760 (whole entry, looked up): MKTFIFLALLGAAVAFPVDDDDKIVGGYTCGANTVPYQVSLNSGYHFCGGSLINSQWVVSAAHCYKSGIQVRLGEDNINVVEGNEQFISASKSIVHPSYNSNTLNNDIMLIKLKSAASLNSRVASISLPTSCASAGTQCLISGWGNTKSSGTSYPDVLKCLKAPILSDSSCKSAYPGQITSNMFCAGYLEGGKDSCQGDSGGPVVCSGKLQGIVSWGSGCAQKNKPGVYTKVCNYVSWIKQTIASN
Sequence of UniProt Q9NPD5 (whole entry, looked up): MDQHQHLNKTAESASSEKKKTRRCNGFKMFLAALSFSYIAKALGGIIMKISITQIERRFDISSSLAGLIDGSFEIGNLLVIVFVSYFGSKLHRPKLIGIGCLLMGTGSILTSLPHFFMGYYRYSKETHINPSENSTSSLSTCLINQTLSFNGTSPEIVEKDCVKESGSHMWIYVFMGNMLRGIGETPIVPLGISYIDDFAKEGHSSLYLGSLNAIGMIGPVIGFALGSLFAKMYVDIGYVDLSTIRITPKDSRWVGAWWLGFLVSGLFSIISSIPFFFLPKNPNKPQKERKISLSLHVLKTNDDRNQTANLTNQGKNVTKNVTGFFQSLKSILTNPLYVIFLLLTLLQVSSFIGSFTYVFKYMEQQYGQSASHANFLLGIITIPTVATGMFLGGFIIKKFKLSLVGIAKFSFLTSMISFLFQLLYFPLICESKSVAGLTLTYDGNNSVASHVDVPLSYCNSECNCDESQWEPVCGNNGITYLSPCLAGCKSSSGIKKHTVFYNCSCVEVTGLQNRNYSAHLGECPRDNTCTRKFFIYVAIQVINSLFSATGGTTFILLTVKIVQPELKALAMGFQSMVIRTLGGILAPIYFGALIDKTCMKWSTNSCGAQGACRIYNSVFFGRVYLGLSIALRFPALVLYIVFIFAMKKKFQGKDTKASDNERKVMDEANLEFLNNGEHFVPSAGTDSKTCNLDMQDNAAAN
Sequence of UniProt P11509 (whole entry, looked up): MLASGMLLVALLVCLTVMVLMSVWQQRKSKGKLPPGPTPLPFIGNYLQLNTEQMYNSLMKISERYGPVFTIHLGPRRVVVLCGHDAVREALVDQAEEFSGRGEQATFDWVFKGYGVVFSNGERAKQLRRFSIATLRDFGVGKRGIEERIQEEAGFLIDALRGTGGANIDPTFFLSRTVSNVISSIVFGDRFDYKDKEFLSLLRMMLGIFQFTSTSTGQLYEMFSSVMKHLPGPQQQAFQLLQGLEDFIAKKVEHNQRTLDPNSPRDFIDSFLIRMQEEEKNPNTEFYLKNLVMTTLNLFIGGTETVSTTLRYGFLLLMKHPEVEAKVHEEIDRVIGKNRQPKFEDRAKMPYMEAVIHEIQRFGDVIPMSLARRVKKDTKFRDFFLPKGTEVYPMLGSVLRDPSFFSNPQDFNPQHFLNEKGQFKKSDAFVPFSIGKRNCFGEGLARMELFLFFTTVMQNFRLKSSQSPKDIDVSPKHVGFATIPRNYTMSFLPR

Oc1ccc(/C=C/c2cc(O)cc(O)c2)cc1: “small single spots per fly” 0.53 Spots per Fly and 0.58 Spots per Fly and 0.47 Spots per Fly (Drosophila melanogaster; wing spot test; standard cross, wings; oral, concentration not given).
With O=S(=O)(c1ccccc1)N1CCN(c2cc(-c3ccccc3)nc3cc(-c4cccc(Cl)c4)nn23)CC1 the IC50 was > 50 µM (ABCG2; JC-1 dye efflux, inhibitor, flow cytometry; ABCG2-overexpressing cells; with: JC-1 1 µM).
CCCCCCCCCCCCCCN(C)C: “intrinsic clearance in vivo” 188 mL/h/g liver (Oncorhynchus mykiss; liver S9 substrate depletion; rainbow trout liver S9; tested individually).
COc1cc2nccc(Oc3ccc(NC(=O)Nc4ccc(C=C5CCNCC5)cc4)c(F)c3)c2cc1OC gave a selectivity index of 18 fold (Plasmodium falciparum; HepG2, 3D7; relative to: HepG2 CC50 over P. falciparum EC50).
CC[C@H](C)[C@H](NC(=O)[C@H](CCC(=O)O)NC(=O)[C@H](CO)NC(=O)[C@@H](NC(=O)[C@@H](N)CO)C(C)C)C(=O)N[C@@H](CCC(N)=O)C(=O)N[C@@H](CC(C)C)C(=O)N[C@@H](CCSC)C(=O)N[C@@H](Cc1cnc[nH]1)C(=O)N[C@@H](CC(N)=O)C(=O)N[C@@H](CC(C)C)C(=O)NCC(=O)N[C@@H](CCCCN)C(=O)N[C@@H](Cc1cnc[nH]1)C(=O)N[C@@H](CC(C)C)C(=O)N[C@@H](CC(N)=O)C(=O)N[C@@H](CO)C(=O)N[C@@H](CCSC)C(=O)N[C@@H](CCC(=O)O)C(=O)N[C@@H](CCCN=C(N)N)C(=O)N[C@H](C(=O)N[C@@H](CCC(=O)O)C(=O)N[C@@H](Cc1c[nH]c2ccccc12)C(=O)N[C@@H](CC(C)C)C(=O)N[C@@H](CCCN=C(N)N)C(=O)N[C@@H](CCCCN)C(=O)N[C@@H](CCCCN)C(=O)N[C@@H](CC(C)C)C(=O)N[C@@H](CCC(N)=O)C(=O)N[C@@H](CC(=O)O)C(=O)N[C@H](C(=O)N[C@@H](Cc1cnc[nH]1)C(=O)N[C@@H](CC(N)=O)C(=O)N[C@@H](Cc1ccccc1)C(=O)O)C(C)C)C(C)C — result for “remaining intact compound”: 0% (Serine protease 1 (PRSS1, Bos taurus, UniProt P00760); substrate, HPLC-UV; Tris buffer; 60 min, pH 6.5, 37 °C, with: bovine trypsin 0.5 mg, no SBTI).
The Km of O=C1CC(c2ccccc2)Oc2ccccc21 (centres unmarked) is reported as 49 µM (Cytochrome P450 2A6 (CYP2A6, Homo sapiens, UniProt P11509); substrate, item: hydroxy metabolite M1 formation; reconstituted system).
For O=C(c1ccoc1)N1CCN(c2cc(-c3cccnc3)nc3cc(-c4cccc(Cl)c4)nn23)CC1, the IC50 was 0.27 ± 0.12 µM (ABCG2; JC-1 dye efflux, inhibitor, flow cytometry; ABCG2-overexpressing cells; with: JC-1 1 µM).
For C=C(C[C@H](N)C(=O)O)C(=O)NC1CC1, the EC50 was > 316 µM (MDA-MB-231; necrosis; 24 h).
O=C(c1ccoc1)N1CCN(c2cc(-c3ccc(F)cc3)nc3cc(-c4ccccc4)nn23)CC1 has an IC50 of 6.45 µM (ABCG2; JC-1 dye efflux, inhibitor, flow cytometry; ABCG2-overexpressing cells; with: JC-1 1 µM).
CCCCCCCCCCCCCCCCN(C)C — result for “intrinsic clearance in vivo”: 105 mL/h/g liver (Oncorhynchus mykiss; liver S9 substrate depletion; rainbow trout liver S9; tested individually).
C=C(C[C@H](N)C(=O)O)C(=O)Nc1ccccc1 gave an EC50 of > 316 µM (MDA-MB-231; necrosis; 24 h).
The IC50 of O=C(c1ccoc1)N1CCN(c2cc(-c3ccccc3F)nc3cc(-c4cccc(Cl)c4)nn23)CC1 is reported as 1.93 ± 0.48 µM (ABCG2; JC-1 dye efflux, inhibitor, flow cytometry; ABCG2-overexpressing cells; with: JC-1 1 µM).
For CCCCCCCCCCCC[N+](C)(C)Cc1ccccc1, “intrinsic clearance in vivo” read 22 mL/h/g liver (Oncorhynchus mykiss; liver S9 substrate depletion; pooled rainbow trout liver S9; pH 7.8, tested individually).
The IC50 of O=C(c1ccccc1Cl)N1CCN(c2cc(-c3ccccc3)nc3cc(-c4cccc(Cl)c4)nn23)CC1 is reported as 1.31 ± 0.23 µM (ABCG2; JC-1 dye efflux, inhibitor, flow cytometry; ABCG2-overexpressing cells; with: JC-1 1 µM).
For CCCCCCCCCN, “intrinsic clearance in vitro” read 0.078 mL/h/mg S9 protein (Oncorhynchus mykiss; liver S9 substrate depletion; pooled rainbow trout liver S9; pH 7.8, tested individually).
CCN(CC)C(=O)COC(=O)c1c(NC(C)=O)sc2c1CCCC2 gave an EC50 of ~20 µM (Trypanosoma brucei; viability, flow cytometry; bloodstream form; 24 h).
With COc1ccccc1-c1cc2nc(-c3ccccc3)cc(N3CCN(C(=O)c4ccccc4)CC3)n2n1 the IC50 was 0.76 ± 0.06 µM (ABCG2; JC-1 dye efflux, inhibitor, flow cytometry; ABCG2-overexpressing cells; with: JC-1 1 µM).
For CCCCCCCCCCCC(=O)OCCN, “intrinsic clearance in vitro” read 2.35 mL/h/mg S9 protein (Oncorhynchus mykiss; liver S9 substrate depletion; pooled rainbow trout liver S9; pH 7.8, tested individually).
The EC50 of C=C(C[C@H](N)C(=O)O)C(=O)Nc1ccc(Cl)cc1 is reported as > 316 µM (MCF-10A; necrosis; 24 h).
CCCCCCCCCCCCCN — result for “intrinsic clearance in vitro”: 0.111 mL/h/mg S9 protein (Oncorhynchus mykiss; liver S9 substrate depletion; pooled rainbow trout liver S9; pH 7.8, tested individually).
With O=C(c1ccncc1)N1CCN(c2cc(-c3ccccc3)nc3cc(-c4cccc(Cl)c4)nn23)CC1 the IC50 was 1.03 ± 0.23 µM (ABCG2; JC-1 dye efflux, inhibitor, flow cytometry; ABCG2-overexpressing cells; with: JC-1 1 µM).
CCCCCCCCCCCCNC: “intrinsic clearance in vivo” 84 mL/h/g liver (Oncorhynchus mykiss; liver S9 substrate depletion; rainbow trout liver S9; tested individually).
The IC50 of O=C(Cc1ccccc1)N1CCN(c2cc(-c3ccccc3)nc3cc(-c4cccc(Cl)c4)nn23)CC1 is reported as 5.76 ± 3.4 µM (ABCG2; JC-1 dye efflux, inhibitor, flow cytometry; ABCG2-overexpressing cells; with: JC-1 1 µM).
Under “intrinsic clearance in vitro”, CCCCCCCCCCN is recorded as 0.139 mL/h/mg S9 protein (Oncorhynchus mykiss; liver S9 substrate depletion; pooled rainbow trout liver S9; pH 7.8, tested individually).
N=C1Sc2ccccc2C2=NCCCN12 has an EC50 of > 25 µM (Trypanosoma brucei; viability, flow cytometry; bloodstream form; 24 h).
C=CC(=O)N1CCC([C@@H]2CCNc3c(C(N)=O)c(-c4ccc(Oc5ccccc5)cc4)nn32)CC1 gave a remaining activity of 91.6 ± 12% (Solute carrier organic anion transporter family member 1B3 (SLCO1B3, Homo sapiens, UniProt Q9NPD5); transport, item: estradiol-17β-glucuronide uptake; HEK293 transfected; 0.05 µM; relative to: vehicle).

For quick reference, copied from above:
CCCCCCCCCCCCCCCCN(C)C — result for “intrinsic clearance in vivo”: 105 mL/h/g liver (Oncorhynchus mykiss; liver S9 substrate depletion; rainbow trout liver S9; tested individually).
C=C(C[C@H](N)C(=O)O)C(=O)Nc1ccccc1 gave an EC50 of > 316 µM (MDA-MB-231; necrosis; 24 h).
